Measurements of several laboratories.
Protocols differ between the studies behind these lines. Numbers after ± are the reported error.

Structure (SMILES) = Nc1nc(CCc2ccccc2)c(Br)c(=O)[nH]1; cell line = CRFK; assay = cytotoxicity, MTS; CC50 = > 100 µM
Structure (SMILES) = CCCC[C@H](NC(=O)[C@@H]1[C@@H]2[C@H](CN1C(=O)[C@@H](NC(=O)NC1(CS(=O)(=O)C(C)(C)C)CCCCC1)C(C)(C)C)C2(C)C)C(=O)C(=O)NC1CC1; cell line = HEK293T; assay = cell viability, MTT; conditions = 48 (unit not given); CC50 = 72 µM
Structure (SMILES) = CN[C@@H]1C[C@H]2O[C@@](C)([C@@H]1OC)n1c3ccccc3c3c4c(c5c6ccccc6n2c5c31)C(=O)NC4; cell line = HEK293; assay = cytotoxicity, MTT; conditions = 24 h; CC50 = 3 ng/mL
Structure (SMILES) = CC[C@H](C)[C@H](N)C(=O)N1CCC[C@H]1C(=O)N[C@@H](CC(C)C)C(=O)N[C@@H](Cc1ccccc1)C(=O)N[C@@H](CCCNC(=N)N)C(=O)N[C@@H](CCCNC(=N)N)C(=O)N[C@@H](Cc1ccccc1)C(=O)NCC(=O)N[C@@H](CCCNC(=N)N)C(=O)N[C@@H](CCC(N)=O)C(=O)N[C@@H](CCCNC(=N)N)C(=O)N[C@@H](CCCCN)C(=O)N[C@H](C(=O)NCC(=O)NCC(=O)N[C@@H](CCCNC(=N)N)C(=O)NCC(=O)N[C@@H](CCCNC(=N)N)C(=O)N[C@H](C(=O)N[C@H](C(=O)N[C@@H](CO)C(=O)N1CCC[C@H]1C(=O)N[C@@H](Cc1ccc(O)cc1)C(=O)N[C@@H](CCCNC(=N)N)C(=O)N[C@H](C(=O)N1CCC[C@H]1C(=O)N[C@H](C(=O)N[C@@H](CC(C)C)C(=O)N[C@@H](CCCNC(=N)N)C(=O)N[C@@H](CCCNC(=N)N)C(=O)N[C@@H](Cc1c[nH]cn1)C(=O)N[C@@H](CCCNC(=N)N)C(=O)N[C@@H](Cc1ccc(O)cc1)C(=O)N[C@@H](CO)C(=O)N[C@H](C(=O)N[C@@H](Cc1ccccc1)C(=O)N[C@@H](CCCNC(=N)N)C(=O)O)[C@@H](C)CC)C(C)C)[C@@H](C)O)[C@@H](C)CC)[C@@H](C)CC)[C@@H](C)CC; cell line = HaCaT; assay = cell viability, MTT; CC50 = 56.6 µM
Structure (SMILES) = C[C@H](Cn1cnc2c(N)ncnc21)OCP(=O)(O)O; cell line = MT-4; assay = cell viability; CC50 = > 250 µM
Structure (SMILES) = Nc1nc(O)c2ncn(COC(CO)CO)c2n1; cell line = CRFK; assay = cytotoxicity, MTS; CC50 = > 100 µM
Structure (SMILES) = CC[C@H](C)[C@H](NC(=O)[C@H](C)NC(=O)[C@H](CCCCN)NC(=O)[C@H](CC(N)=O)NC(=O)[C@@H](NC(=O)[C@H](CCCCN)NC(=O)[C@H](CCCCN)NC(=O)[C@H](CC(C)C)NC(=O)[C@@H](NC(=O)[C@H](CCCCN)NC(=O)CNC(=O)[C@@H](NC(=O)CNC(=O)[C@H](CC(N)=O)NC(=O)[C@@H](NC(=O)CNC(=O)[C@H](Cc1ccc(O)cc1)NC(=O)[C@H](CCCNC(=N)N)NC(=O)[C@H](CCSC)NC(=O)[C@@H](NC(=O)[C@H](CCSC)NC(=O)[C@H](C)NC(=O)[C@H](CC(C)C)NC(=O)[C@H](CCC(N)=O)NC(=O)[C@H](CCCCN)NC(=O)[C@H](CCCCN)NC(=O)[C@@H](NC(=O)[C@@H](N)CCCNC(=N)N)[C@@H](C)O)C(C)C)C(C)C)C(C)C)[C@@H](C)CC)[C@@H](C)CC)C(=O)N[C@H](C(=O)N[C@@H](CO)C(=O)N[C@@H](CCCCN)C(=O)N[C@@H](CCCCN)C(=O)N[C@@H](CC(N)=O)C(=O)N[C@@H](CCCCN)C(=O)N[C@@H](CC(=O)O)C(=O)N[C@H](C(=O)N[C@H](C(=O)N[C@H](C(=O)N[C@H](C(=O)N[C@@H](C)C(=O)N[C@@H](CC(N)=O)C(=O)N[C@@H](C)C(=O)N[C@H](C(=O)N[C@@H](Cc1ccccc1)C(=O)N[C@H](C(=O)N[C@@H](CCCCN)C(=O)O)C(C)C)C(C)C)C(C)C)[C@@H](C)O)C(C)C)[C@@H](C)CC)C(C)C; cell line = HaCaT; assay = cell viability, MTT; CC50 = 61.7 µM
Structure (SMILES) = CN1CCC(Cc2cccc(CNC3(c4ccc(F)cc4O)CCCC3)c2)CC1; cell line = BT-474; assay = CyQuant; CC50 = inactive
Structure (SMILES) = C=C(C)[C@]12C[C@@H](C)[C@@]34O[C@](CCCCCCCCC)(O[C@@H]1[C@@H]3[C@@H]1O[C@]1(CO)[C@@H](O)[C@]1(O)C(=O)C(C)=C[C@H]14)O2; cell line = MT-4; assay = cytotoxicity; CC50 = 9.57 ± 0.86 µM

Excerpt of the above:
Structure (SMILES) = C[C@H](Cn1cnc2c(N)ncnc21)OCP(=O)(O)O; cell line = MT-4; assay = cell viability; CC50 = > 250 µM
